Assay results collected from several papers.
Numbered parts are unrelated; each lists some results of a single study. Positions count from the first letter of the parent shown.

Sample 1 — method: universal PBM; molecule type: double-stranded DNA, one strand shown; medium: in vitro; tested at: 600 nM; reading: higher = stronger binding; quantity: E-score
Target: Sal-like protein 4, full length isoform A (SALL4, Homo sapiens, UniProt Q9UJQ4, residues 1-1053)
Chain of UniProt Q9UJQ4 (whole entry, looked up): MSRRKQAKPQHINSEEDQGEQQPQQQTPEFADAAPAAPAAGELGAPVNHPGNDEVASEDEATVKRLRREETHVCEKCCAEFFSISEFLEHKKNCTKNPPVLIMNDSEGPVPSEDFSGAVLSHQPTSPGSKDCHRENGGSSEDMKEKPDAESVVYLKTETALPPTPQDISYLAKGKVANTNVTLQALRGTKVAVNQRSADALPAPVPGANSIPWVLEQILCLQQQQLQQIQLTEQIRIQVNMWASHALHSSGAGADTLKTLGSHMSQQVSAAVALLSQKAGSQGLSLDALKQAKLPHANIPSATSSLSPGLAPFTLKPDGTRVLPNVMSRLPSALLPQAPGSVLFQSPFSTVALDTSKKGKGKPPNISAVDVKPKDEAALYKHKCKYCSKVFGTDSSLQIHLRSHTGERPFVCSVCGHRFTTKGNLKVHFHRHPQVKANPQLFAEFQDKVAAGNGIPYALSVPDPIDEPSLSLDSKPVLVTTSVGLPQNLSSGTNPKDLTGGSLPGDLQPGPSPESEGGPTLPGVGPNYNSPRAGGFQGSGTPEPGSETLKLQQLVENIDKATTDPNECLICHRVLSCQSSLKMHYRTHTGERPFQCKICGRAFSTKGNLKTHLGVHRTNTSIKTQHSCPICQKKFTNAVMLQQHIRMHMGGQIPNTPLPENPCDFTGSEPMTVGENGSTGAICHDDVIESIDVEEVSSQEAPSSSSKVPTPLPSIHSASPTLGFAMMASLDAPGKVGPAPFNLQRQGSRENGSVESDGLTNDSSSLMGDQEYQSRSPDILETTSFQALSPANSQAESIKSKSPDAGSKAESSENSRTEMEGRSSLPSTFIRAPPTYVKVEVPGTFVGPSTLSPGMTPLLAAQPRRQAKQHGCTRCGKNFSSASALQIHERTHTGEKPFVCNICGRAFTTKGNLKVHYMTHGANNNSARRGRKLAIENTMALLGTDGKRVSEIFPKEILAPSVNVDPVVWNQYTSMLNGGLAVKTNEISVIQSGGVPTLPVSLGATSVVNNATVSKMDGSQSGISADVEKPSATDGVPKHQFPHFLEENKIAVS
Notes: 8-mer, flanks averaged, mean of replicates
AGCCAGCG: -0.264
CAGTCTCA: -0.0209
ACACAGTC: 0.0276
CATACAGG: 0.127
ACCATAGG: -0.0286
AAATGTGT: 0.285
CCCTCAAC: -0.233
ATCGACTG: -0.133
ACCACGGA: -0.336
CTGGCAGA: -0.108
GAGGATAA: 0.135
GTAGGCAA: 0.0542
CTAGGAGA: -0.0231
GATTGTGC: -0.0574
AATTCGTG: 0.0894
CACGTTCA: 0.0406
CCTCTTCA: 0.137

Sample 2 — method: protein binding microarray; molecule type: double-stranded DNA, one strand shown; medium: in vitro; tested at: not given; baseline: not given; reading: higher = stronger binding; quantity: E-score
Target: Histone acetyltransferase KAT6A, both winged helices, GST fusion (KAT6A, Homo sapiens, UniProt Q92794, residues 1-181)
Notes: 8-mer, flanks averaged, mean of 2 arrays, mostly near background
Construct (chain): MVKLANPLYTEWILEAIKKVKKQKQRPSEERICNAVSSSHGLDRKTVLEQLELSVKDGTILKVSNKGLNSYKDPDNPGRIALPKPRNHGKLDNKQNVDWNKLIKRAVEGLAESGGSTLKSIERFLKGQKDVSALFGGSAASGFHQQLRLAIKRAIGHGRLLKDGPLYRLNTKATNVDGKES
ATAGAATC: -0.126
AATCAATT: 0.00562
ATGTAGGC: -0.0486
GACTTAGA: -0.163
CAGGCATG: -0.109
CAGGGTAA: -0.145
CTCTTATC: -0.0887
GGAAGCAC: -0.0259
AGCGTGTA: 0.202
TACCAGCA: -0.142
TACATCGA: -0.1
ATAAGACA: -0.0511
AGTACATA: -0.0956
AACCGAGT: 0.0503
GAGGAGCA: -0.0318
ATGCCTTC: -0.256
GGTGTAAA: -0.112
CATCGATC: -0.13

Sample 3 — method: protein-binding microarray; molecule type: double-stranded DNA, one strand shown; medium: in vitro; tested at: not given; reading: higher = stronger binding; quantity: E-score
Target: Protein max, full length (MAX, Homo sapiens, UniProt P61244-2, residues 1-151)
Notes: k-mer, scored over probes, only values ≥0.25
ACCACATG: 0.477
CACGCAAC: 0.317
CACTCACG: 0.319
CGCATTGC: 0.268
ACGCGGGG: 0.324
GTGTGTTA: 0.266
AACACATG: 0.479
ACGTGCAC: 0.457
AAGCAGGT: 0.284
CCCGTGTA: 0.338
ACCATGTG: 0.49
AGCGTGAC: 0.435
AAACACGT: 0.445
CCACGTTC: 0.381
GCCACCCC: 0.259
CCACGCCC: 0.361
CACGCCCA: 0.347
GAGCGTGC: 0.377
CATGAGGG: 0.391

Sample 4 — target: CCND2, cyclin fold, Cln2 fusion (human); method: yeast growth competition, sequencing; medium: yeast; notes: weak parent motif; baseline: not given; reading: higher = stronger binding; quantity: normalised enrichment score
Starting sequence: RB1 docking peptide (human); PKPLKKLRFDIEG
K6S: -0.00936
K5Y: 0.558
P3G: 0.421
P1S: 0.381
F9P: -0.0703
L7W: 0.162
K2C: 0.187
F9T: 0.255
P1M: 0.00115
I11G: 0.084
K5P: 0.335
E12G: 0.367
I11K: 0.115
L7S: 0.33
E12K: -0.379
P3F: -0.471
K2V: 0.56

Sample 5 — method: protein-binding microarray; molecule type: double-stranded DNA, one strand shown; medium: in vitro; tested at: 250 nM; notes: 60-bp whole probe; together with: salmon DNA 0.4 mg/ml; baseline: random background probes; reading: higher = stronger binding; quantity: log fluorescence; shared flanks, not repeated: GCCTAGCAC … GTCTTGATTCGCTTGACGCTGCTG
Target: Interferon regulatory factor 5, full length, phosphomimetic (IRF5, Homo sapiens, UniProt Q13568-2, residues 1-514, K96S/S451D/S453D/S456D/S462D)
TCAGTCACCCATCTCAGACTGTGCTAG: -0.117 z-score
GACGATCTCAGTCGCGAGACGTGCTAG: -0.139 z-score
TTATGTCTCCTTCTCCTTTAGTGCTAG: 0.501 z-score
TCACAACTCTGTTTTCGACTGTGCTAG: 2.38 z-score
TTAGGTTCCGGTTTCGGTAAGTGCTAG: 9.15 z-score
TCAACCTTCGAGTCTGCAACTGTGCTA: 0.633 z-score
GACGATTTCGGGTTTCGGGACGTGCTA: 4.96 z-score
TCAGGTTTCGGTTTCGGTTAGTGCTAG: 11.5 z-score
CCCGTTCACCCACGACCCTTGTGCTAG: -0.0874 z-score
TTGGAACTGAGACTGGATTAGTGCTAG: -0.392 z-score
GCATTTTTCTAACCCATTGAGTGCTAG: 0.555 z-score
TTAGGTATCGATCTCGGTTAGTGCTAG: 5.66 z-score
GACGAACGGGGGACTGGAGACGTGCTA: -0.228 z-score
GAAGAACTGGGGTATCGAGACGTGCTA: 0.417 z-score
TTAGGTATCCTTATCCATTAGTGCTAG: 0.365 z-score
TATGGTATGCTCATGACAAAGTGCTAG: -0.165 z-score
TCAGGTTCCCTTTTCCTTTAGTGCTAG: 0.434 z-score

Sample 6 — method: DHFR PCA, deep sequencing; medium: yeast; together with: (+)-ABA 0 µM; baseline: wild-type fitted maximum; reading: higher = stronger binding; quantity: relative binding score
Target: ABI1, truncated, D143A, DHFR fusion (Arabidopsis thaliana)
Notes: methotrexate growth selection, single substitutions
Starting sequence: PYL1, truncated, DHFR fusion (Arabidopsis thaliana); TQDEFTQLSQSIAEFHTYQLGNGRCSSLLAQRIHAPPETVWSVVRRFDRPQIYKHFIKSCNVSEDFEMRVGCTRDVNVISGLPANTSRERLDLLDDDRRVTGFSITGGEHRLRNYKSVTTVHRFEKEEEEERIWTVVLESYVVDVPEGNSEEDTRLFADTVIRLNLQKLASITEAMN; partner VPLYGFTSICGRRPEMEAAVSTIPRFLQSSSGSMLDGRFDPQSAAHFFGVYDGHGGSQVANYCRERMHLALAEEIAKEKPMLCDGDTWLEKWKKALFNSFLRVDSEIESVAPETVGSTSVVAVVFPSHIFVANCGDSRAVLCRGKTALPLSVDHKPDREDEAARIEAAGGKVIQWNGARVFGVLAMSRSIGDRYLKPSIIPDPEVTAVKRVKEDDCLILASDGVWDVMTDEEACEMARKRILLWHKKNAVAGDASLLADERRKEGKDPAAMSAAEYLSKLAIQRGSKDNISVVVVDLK
T73A: 4.87%
L91P: 2.32%
V70L: 1.79%
I33K: -4.06%
K126D: 50.3%
L82I: 20.7%
T6K: 54.2%
I52W: 7.26%
M176R: 8.54%
V161Q: 38.8%
A158F: -3.87%
T106Q: 9.68%
N22F: 12.8%
Q19K: 39.6%

Excerpt of the above (sample 4):
K5Y: 0.558
P3G: 0.421
P1S: 0.381
F9P: -0.0703
L7W: 0.162
K2C: 0.187
